Experimental data from different studies.
Lines come from different studies, so protocols differ. Numbers after ± are the reported error.
Sequence of UniProt Q9Y294 (whole entry, unmodified, looked up): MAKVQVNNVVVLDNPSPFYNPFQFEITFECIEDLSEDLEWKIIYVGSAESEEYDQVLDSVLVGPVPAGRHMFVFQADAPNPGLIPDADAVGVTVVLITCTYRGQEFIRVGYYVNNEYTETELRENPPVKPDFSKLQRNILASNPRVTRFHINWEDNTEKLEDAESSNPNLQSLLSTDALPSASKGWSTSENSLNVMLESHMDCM
Sequence of UniProt P19643 (whole entry, looked up): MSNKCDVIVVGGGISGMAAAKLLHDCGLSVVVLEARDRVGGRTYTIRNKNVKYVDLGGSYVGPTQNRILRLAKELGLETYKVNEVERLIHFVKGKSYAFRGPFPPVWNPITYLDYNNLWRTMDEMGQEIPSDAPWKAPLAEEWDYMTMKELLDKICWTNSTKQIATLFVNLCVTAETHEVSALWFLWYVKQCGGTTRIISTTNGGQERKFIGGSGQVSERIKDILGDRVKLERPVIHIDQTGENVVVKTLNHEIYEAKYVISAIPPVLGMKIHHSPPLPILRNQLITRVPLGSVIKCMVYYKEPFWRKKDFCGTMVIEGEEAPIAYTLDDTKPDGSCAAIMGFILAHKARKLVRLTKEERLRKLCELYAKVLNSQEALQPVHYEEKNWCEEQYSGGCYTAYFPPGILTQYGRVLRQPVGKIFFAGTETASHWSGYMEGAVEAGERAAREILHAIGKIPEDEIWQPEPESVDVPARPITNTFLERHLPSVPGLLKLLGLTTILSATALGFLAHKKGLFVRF
Sequence of UniProt P63104 (whole entry, looked up): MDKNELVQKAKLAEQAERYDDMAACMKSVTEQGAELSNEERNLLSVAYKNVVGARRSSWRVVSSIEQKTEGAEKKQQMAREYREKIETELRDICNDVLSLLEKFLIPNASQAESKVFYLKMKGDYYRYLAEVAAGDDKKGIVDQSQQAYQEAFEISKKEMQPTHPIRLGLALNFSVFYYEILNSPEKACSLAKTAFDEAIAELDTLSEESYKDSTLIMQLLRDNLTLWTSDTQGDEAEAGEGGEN
Sequence of UniProt P05067 (whole entry, looked up): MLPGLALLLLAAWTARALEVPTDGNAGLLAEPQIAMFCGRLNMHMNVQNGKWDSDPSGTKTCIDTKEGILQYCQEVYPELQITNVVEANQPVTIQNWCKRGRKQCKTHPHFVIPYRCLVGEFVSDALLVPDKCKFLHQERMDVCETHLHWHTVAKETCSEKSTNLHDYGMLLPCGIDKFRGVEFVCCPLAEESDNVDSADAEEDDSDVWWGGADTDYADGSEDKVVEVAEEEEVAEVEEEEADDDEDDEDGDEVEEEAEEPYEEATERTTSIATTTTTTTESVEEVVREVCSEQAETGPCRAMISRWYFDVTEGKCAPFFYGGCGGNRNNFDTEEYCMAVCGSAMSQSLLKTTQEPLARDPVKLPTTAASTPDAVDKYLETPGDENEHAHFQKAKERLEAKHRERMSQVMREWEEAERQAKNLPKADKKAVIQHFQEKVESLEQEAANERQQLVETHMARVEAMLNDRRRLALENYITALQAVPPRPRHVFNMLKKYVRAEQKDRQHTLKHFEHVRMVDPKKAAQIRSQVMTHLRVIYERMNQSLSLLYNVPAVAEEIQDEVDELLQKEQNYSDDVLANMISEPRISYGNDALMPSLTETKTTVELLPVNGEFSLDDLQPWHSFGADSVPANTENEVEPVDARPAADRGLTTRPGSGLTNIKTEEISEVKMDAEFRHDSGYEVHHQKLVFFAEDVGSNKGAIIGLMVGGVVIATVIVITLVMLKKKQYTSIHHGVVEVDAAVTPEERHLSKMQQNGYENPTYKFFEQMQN
Sequence of UniProt Q06187 (whole entry, looked up): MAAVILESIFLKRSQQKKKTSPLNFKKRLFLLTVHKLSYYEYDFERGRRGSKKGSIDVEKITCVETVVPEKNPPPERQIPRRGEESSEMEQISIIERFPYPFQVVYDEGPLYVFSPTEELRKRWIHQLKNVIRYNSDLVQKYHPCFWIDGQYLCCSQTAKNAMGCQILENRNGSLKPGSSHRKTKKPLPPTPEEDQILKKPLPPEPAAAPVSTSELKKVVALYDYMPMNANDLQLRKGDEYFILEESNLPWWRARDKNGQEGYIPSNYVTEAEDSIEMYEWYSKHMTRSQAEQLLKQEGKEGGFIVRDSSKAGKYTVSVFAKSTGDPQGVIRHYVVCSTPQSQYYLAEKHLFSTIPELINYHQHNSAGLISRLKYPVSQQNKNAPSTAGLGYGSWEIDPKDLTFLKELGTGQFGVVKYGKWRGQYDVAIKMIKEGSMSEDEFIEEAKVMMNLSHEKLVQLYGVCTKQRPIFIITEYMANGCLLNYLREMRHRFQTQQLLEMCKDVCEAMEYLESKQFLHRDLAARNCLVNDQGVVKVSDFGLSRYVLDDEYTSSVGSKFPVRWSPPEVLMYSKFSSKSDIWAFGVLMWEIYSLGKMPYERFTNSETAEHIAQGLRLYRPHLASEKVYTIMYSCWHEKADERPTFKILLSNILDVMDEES
Sequence of UniProt Q96SW2 (whole entry, looked up): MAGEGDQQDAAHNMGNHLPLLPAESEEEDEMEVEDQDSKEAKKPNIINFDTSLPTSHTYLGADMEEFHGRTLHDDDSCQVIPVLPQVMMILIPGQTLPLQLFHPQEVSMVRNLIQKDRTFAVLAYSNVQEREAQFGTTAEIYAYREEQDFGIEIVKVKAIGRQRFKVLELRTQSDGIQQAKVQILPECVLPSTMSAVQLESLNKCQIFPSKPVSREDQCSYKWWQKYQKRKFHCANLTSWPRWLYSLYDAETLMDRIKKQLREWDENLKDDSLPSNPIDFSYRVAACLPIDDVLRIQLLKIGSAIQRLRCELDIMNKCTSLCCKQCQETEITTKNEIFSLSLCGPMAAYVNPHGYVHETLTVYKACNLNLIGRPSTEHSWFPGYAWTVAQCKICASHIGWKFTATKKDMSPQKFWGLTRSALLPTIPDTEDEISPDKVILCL
Sequence of UniProt P22736 (whole entry, looked up): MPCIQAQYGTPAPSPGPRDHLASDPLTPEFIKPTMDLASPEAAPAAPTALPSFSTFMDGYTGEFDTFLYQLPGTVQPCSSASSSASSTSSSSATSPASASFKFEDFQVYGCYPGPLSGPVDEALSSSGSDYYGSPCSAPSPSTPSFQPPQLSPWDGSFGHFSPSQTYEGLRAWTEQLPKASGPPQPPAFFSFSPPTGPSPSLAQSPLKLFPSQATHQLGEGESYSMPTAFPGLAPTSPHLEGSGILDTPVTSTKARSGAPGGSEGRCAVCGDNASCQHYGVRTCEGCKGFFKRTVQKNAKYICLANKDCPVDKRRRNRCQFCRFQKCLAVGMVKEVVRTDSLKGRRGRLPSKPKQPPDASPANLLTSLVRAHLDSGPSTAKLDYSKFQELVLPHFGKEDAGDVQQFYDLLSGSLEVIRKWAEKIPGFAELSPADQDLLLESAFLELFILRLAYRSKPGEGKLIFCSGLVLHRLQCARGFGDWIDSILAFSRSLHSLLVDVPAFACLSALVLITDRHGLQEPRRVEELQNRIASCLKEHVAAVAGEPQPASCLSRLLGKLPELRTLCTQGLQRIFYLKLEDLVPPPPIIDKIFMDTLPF
Sequence of UniProt O14786 (whole entry, unmodified, looked up): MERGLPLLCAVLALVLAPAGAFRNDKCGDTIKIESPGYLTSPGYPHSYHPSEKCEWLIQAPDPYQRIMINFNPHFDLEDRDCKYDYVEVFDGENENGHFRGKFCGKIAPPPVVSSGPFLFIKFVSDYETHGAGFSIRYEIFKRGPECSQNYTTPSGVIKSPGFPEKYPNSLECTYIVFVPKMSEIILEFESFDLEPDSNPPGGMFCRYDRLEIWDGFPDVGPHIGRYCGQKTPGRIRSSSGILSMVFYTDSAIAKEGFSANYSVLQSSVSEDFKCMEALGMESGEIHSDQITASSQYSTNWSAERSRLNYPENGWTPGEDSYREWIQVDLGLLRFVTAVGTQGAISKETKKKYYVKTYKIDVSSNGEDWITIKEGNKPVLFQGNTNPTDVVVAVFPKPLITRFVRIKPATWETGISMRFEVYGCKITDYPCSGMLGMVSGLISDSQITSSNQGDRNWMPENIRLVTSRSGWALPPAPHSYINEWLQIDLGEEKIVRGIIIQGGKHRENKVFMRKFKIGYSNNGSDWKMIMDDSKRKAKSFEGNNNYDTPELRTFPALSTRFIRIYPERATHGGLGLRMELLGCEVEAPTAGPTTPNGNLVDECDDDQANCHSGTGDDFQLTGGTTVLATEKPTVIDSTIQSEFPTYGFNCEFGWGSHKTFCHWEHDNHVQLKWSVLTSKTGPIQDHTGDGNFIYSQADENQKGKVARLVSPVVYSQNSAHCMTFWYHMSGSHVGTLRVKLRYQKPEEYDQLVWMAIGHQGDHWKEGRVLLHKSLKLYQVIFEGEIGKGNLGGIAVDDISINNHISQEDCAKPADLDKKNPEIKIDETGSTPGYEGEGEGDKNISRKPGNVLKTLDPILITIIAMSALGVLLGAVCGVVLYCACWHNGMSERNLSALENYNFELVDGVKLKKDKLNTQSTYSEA

Compound | target | test | test system | setting | scale | endpoint | result
Cc1cccc(C)c1Nc1nn(C)c2nc(Nc3ccc4c(c3)CN(CC3CCN(c5ccc6c(c5)C(=O)N(C5CCC(=O)NC5=O)C6=O)CC3)CC4)ncc12 (centres unmarked) | BTK/CRBN (Homo sapiens, UniProt Q06187+Q96SW2) | ternary complex formation, TR-FRET | – | 30 min | – | hook effect onset | ~160 nM
CC(=O)N[C@@H](CO)C(=O)N[C@@H](C)C(=O)N[C@@H](CCCCN)C(=O)N[C@@H](C)C(=O)N[C@@H](C)C(=O)N[C@@H](CC(=O)O)C(=O)N[C@@H](CC(=O)O)C(=O)N1CCC[C@H]1C(=O)N[C@@H](CCC(=O)O)C(=O)N[C@@H](CC(N)=O)C(=O)NCC(=O)N[C@@H](CCC(=O)O)C(=O)N[C@@H](CCCNC(=N)N)C(=O)N[C@@H](CCC(=O)O)C(=O)N[C@@H](CO)C(=O)N[C@@H](Cc1c[nH]cn1)C(=O)N[C@H](C(=O)N1CCC[C@H]1C(=O)N[C@H](C(=O)N[C@@H](CO)C(N)=O)C(C)C)[C@@H](C)O | Kelch-like ECH-associated protein 1, Kelch domain (KEAP1, Homo sapiens, UniProt Q14145) | isothermal titration calorimetry | Kelch domain | pH 7, 298.15 K | – | TΔS | -6.98 kcal/mol
N=C(N)NCCC[C@H](NC(=O)[C@H](CCCNC(=N)N)NC(=O)[C@H](CC(N)=O)NC(=O)[C@H](CCCNC(=N)N)NC(=O)[C@@H]1CCCN1C(=O)[C@H](CCCCN)NC(=O)[C@H](CCCCN)NC(=O)[C@H](CCC(N)=O)NC(=O)[C@H](CC(=O)O)NC(=O)[C@@H](N)Cc1c[nH]c2ccccc12)C(=O)O | Neuropilin-1 (NRP1, Homo sapiens, UniProt O14786) | binding, ITC | – | pH 7.4, 30 °C | – | TΔS | -12.2 kcal/mol
Nc1nc2c(ncn2[C@@H]2O[C@@H]3COP(=O)(O)O[C@H]4[C@@H](O)[C@H](n5cnc6c(=O)[nH]c(N)nc65)O[C@@H]4COP(=O)(O)O[C@H]3[C@H]2O)c(=O)[nH]1 | SLC19A1 (Homo sapiens, UniProt P41440) | inhibitor | THP-1 | 100 µM, 1 h | – | 2'3'-cGAMP uptake | inhibited
CC[C@H](C)[C@H](NC(=O)[C@H](CCCNC(=N)N)NC(=O)[C@H](CCCNC(=N)N)NC(=O)[C@H](C)NC(=O)[C@H](CC(C)C)NC(=O)[C@H](CCCNC(=N)N)NC(=O)[C@H](C)NC(=O)[C@H](Cc1c[nH]c2ccccc12)NC(=O)[C@H](CCCCN)NC(=O)[C@H](CCC(=O)O)NC(=O)[C@H](CCC(=O)O)NC(=O)[C@@H](NC(=O)[C@H](CO)NC(=O)[C@H](C)NC(C)=O)[C@@H](C)O)C(=O)N[C@@H](C)C(=O)NCC(N)=O | Histone chaperone ASF1A (Homo sapiens, UniProt Q9Y294) | isothermal titration calorimetry | – | pH 7.5, 20 °C | – | -TΔS | 2.9 ± 0.4 kcal/mol
COCCOCCOCCOC(=O)/C(C#N)=C/c1ccc2cc(NCCN3CCOCC3)ccc2c1 | Amyloid-beta precursor protein, Aβ42 aggregates (APP, Homo sapiens, UniProt P05067) | fluorescence | – | free probe, 5% DMSO in water | – | excitation maximum | 430 nm
CC[C@H](C)[C@H](NC(=O)[C@H](CCCNC(=N)N)NC(=O)[C@H](CCCCN)NC(=O)[C@@H](NC(=O)[C@H](C)NC(=O)[C@H](CCCNC(=N)N)NC(=O)[C@H](CCC(N)=O)NC(=O)[C@H](CO)NC(=O)[C@H](CCCCN)NC(=O)[C@H](CC(N)=O)NC(=O)[C@@H](N)CCCNC(=N)N)[C@@H](C)O)C(=O)N[C@@H](CO)C(=O)N[C@@H](Cc1c[nH]cn1)C(=O)N[C@@H](CCSC)C(=O)N1CCC[C@H]1C(=O)N[C@@H](CO)C(=O)N[C@@H](CCCNC(=N)N)C(=O)N1CCC[C@H]1C(=O)N[C@@H](CCC(=O)O)C(=O)N[C@@H](CC(C)C)C(=O)N[C@@H](CO)C(=O)N[C@@H](C)C(=O)N[C@H](C(=O)N[C@@H](C)C(=O)N[C@H](C(=O)N[C@@H](CC(=O)O)C(=O)N[C@@H](CC(C)C)C(=O)N[C@@H](CCCNC(=N)N)C(=O)N[C@@H](CCCCN)C(=O)N[C@@H](CC(=O)O)C(=O)N[C@@H](CCCCN)C(=O)N[C@@H](C)C(=O)N[C@@H](CCCCN)C(=O)N[C@@H](COP(=O)(O)O)C(=O)N[C@@H](CSC/C=C(\C)CC/C=C(\C)CCC=C(C)C)C(=O)OC)[C@@H](C)O)C(C)C | YWHAZ (Homo sapiens, UniProt P63104) | binding, stopped-flow fluorescence polarization | – | – | – | kon | 3.92e+07 M⁻¹ s⁻¹
COc1ccc(C(=O)/C=C/c2ccc(O)cc2)c(O)c1CC=C(C)C | Maob (Rattus norvegicus, UniProt P19643) | inhibitor | – | concentration not given, together with: benzylamine | relative to: cynaroside | MAO-B inhibitory potency | ~150 fold
[3H]C([3H])([3H])c1cnccc1CN1C[C@@H](c2cc(F)c(F)c(F)c2)CC1=O | SV2A (Homo sapiens, UniProt Q7L0J3) | radioligand binding | human Alzheimer disease, hippocampus P2 fraction | 5 nM | relative to: control brains | loss of specific binding | ~70.3%
C#Cc1ccc(O[C@@H]2O[C@H](CO)[C@H](O)[C@H](O)[C@H]2O)cc1 | lecA (Pseudomonas aeruginosa, UniProt Q05097) | ITC | – | 5% DMSO | – | –TΔS | 2.5 ± 0.6 kcal/mol
CC1=C(O)C(=O)C=C2C1=CC=C1[C@@]2(C)CC[C@@]2(C)[C@@H]3C[C@](C)(C(=O)NCCOCCOCCOCCOCC(=O)N[C@H](C(=O)N4C[C@H](O)C[C@H]4C(=O)N[C@@H](C)c4ccc(-c5scnc5C)cc4)C(C)(C)C)CC[C@]3(C)CC[C@]12C | Nuclear receptor subfamily 4 group A member 1 (NR4A1, Homo sapiens, UniProt P22736) | degrader, immunoblotting | CHL-1 | 500 nM | – | time window of efficient degradation | 8 to 48 h

A few entries again:
Compound | target | test | test system | setting | scale | endpoint | result
CC[C@H](C)[C@H](NC(=O)[C@H](CCCNC(=N)N)NC(=O)[C@H](CCCNC(=N)N)NC(=O)[C@H](C)NC(=O)[C@H](CC(C)C)NC(=O)[C@H](CCCNC(=N)N)NC(=O)[C@H](C)NC(=O)[C@H](Cc1c[nH]c2ccccc12)NC(=O)[C@H](CCCCN)NC(=O)[C@H](CCC(=O)O)NC(=O)[C@H](CCC(=O)O)NC(=O)[C@@H](NC(=O)[C@H](CO)NC(=O)[C@H](C)NC(C)=O)[C@@H](C)O)C(=O)N[C@@H](C)C(=O)NCC(N)=O | Histone chaperone ASF1A (Homo sapiens, UniProt Q9Y294) | isothermal titration calorimetry | – | pH 7.5, 20 °C | – | -TΔS | 2.9 ± 0.4 kcal/mol
